Experimental data collected from several papers.
Every numbered part comes from another study and shows a few of its results, in no order. Changes are numbered by the printed parent chain.

Study 1
Target: CCNB3, cyclin fold, Cln2 fusion (human)
Technique: yeast growth competition, sequencing
Sample: yeast
Setting: weak parent motif
Relative to: not given
Direction: higher = stronger binding
Endpoint: normalised enrichment score
Starting sequence: SLBP docking peptide (human); ARYKRKLLINDFG; partner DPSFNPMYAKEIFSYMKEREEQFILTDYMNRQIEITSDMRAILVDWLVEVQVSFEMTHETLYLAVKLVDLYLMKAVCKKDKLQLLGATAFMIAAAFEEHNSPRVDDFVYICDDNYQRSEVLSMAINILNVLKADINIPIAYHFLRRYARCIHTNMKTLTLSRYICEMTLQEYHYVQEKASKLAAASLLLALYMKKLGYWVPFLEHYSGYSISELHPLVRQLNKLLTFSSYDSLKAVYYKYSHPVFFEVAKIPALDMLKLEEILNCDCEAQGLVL
Variant = TRYKRKLLINDFG [A1T]; value = 0.302
Variant = ARYKRKLLINAFG [D11A]; value = 0.456
Variant = ARYKRKLLINDFC [G13C]; value = 0.504
Variant = ARYKRKLLINDFE [G13E]; value = 0.412
Variant = ARYKRKLLINQFG [D11Q]; value = 0.0167
Variant = ARYKRKCLINDFG [L7C]; value = 0.177
Variant = AYYKRKLLINDFG [R2Y]; value = 0.57
Variant = ARYKRKLIINDFG [L8I]; value = 0.11
Variant = ARYKRKLLKNDFG [I9K]; value = 0.368
Variant = ARYKRKLLIRDFG [N10R]; value = 0.00458
Variant = ARYERKLLINDFG [K4E]; value = 0.112
Variant = ARYKRGLLINDFG [K6G]; value = 0.287
Variant = ARYKRKLGINDFG [L8G]; value = -0.182
Variant = NRYKRKLLINDFG [A1N]; value = 0.355
Variant = ARYKKKLFINDFG [R5K L8F]; value = 0.491
Variant = ARYKRKLMINDFG [L8M]; value = 0.54

Study 2
Target: Histone acetyltransferase KAT6A, winged helix 1, GST fusion (KAT6A, Homo sapiens, UniProt Q92794, residues 1-85)
Technique: protein binding microarray
Form: double-stranded DNA, one strand shown
Sample: in vitro
Tested at: not given
Setting: 8-mer, flanks averaged, mean of 2 arrays, mostly near background
Relative to: not given
Direction: higher = stronger binding
Endpoint: E-score
Construct (chain): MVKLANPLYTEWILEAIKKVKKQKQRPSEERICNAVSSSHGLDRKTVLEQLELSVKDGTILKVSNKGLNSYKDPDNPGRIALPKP
Sequence = GGATGAGA; value = -0.14
Sequence = AGGAATAA; value = -0.187
Sequence = CCTTTTGA; value = -0.11
Sequence = TGCCTTAA; value = -0.19
Sequence = TCGGCTCA; value = 0.122
Sequence = CACGGCTA; value = 0.408
Sequence = CCCCACCG; value = 0.239
Sequence = CGATAGAA; value = -0.0597
Sequence = AGAATGTA; value = -0.0249
Sequence = CTCGCAAA; value = -0.121
Sequence = CAAGAATC; value = -0.0971
Sequence = CCCGCTTA; value = 0.223
Sequence = CGCAATCA; value = 0.159
Sequence = GCCCACTA; value = -0.27
Sequence = TTACTGAA; value = 0.00143
Sequence = ACGCACAT; value = 0.0516
Sequence = CGAGTACG; value = 0.232
Sequence = CCTGGGAC; value = -0.0352
Sequence = CCATGCGG; value = 0.148
Sequence = ACGGTACA; value = 0.0764
Sequence = GAATTGCA; value = -0.226
Sequence = GTCTTGCA; value = 0.0351
Sequence = ACGATAAT; value = -0.0719

Study 3
Target: Transcription factor SOX-2, HMG box (SOX2, Homo sapiens, UniProt P48431, residues 19-118)
UniProt P48431, sequence (19-118, looked up): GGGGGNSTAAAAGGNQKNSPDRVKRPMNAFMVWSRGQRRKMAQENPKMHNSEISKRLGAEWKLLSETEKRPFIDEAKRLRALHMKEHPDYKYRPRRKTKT
Technique: protein-binding microarray
Form: double-stranded DNA, one strand shown
Sample: in vitro
Tested at: not given
Setting: k-mer, scored over probes, only values ≥0.25
Direction: higher = stronger binding
Endpoint: E-score
Sequence = CAATAAC; value = 0.329
Sequence = CTCAATA; value = 0.252
Sequence = AATTCAG; value = 0.37
Sequence = ATTGTTC; value = 0.48
Sequence = AAGCTGA; value = 0.315
Sequence = CCAATTA; value = 0.316
Sequence = ATTGTAG; value = 0.351
Sequence = AATGAAT; value = 0.451
Sequence = AATATAG; value = 0.281
Sequence = ATTGAGC; value = 0.266
Sequence = ACAAAAT; value = 0.297
Sequence = ACAATGT; value = 0.414
Sequence = ATTGAAC; value = 0.376
Sequence = AGAGAAT; value = 0.299
Sequence = TATGTGA; value = 0.33
Sequence = ATTCTTC; value = 0.357
Sequence = AGTATTG; value = 0.268

Study 4
Target: CRIPT, C-terminal peptide
Technique: DHFR complementation, deep sequencing
Sample: yeast
Setting: single substitutions, model-inferred values
Relative to: wild type
Direction: higher = weaker binding
Endpoint: binding free energy change
Starting sequence: ERBIN, PDZ domain 1 (human); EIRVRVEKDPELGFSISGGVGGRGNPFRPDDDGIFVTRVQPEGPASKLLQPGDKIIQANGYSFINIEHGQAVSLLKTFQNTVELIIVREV; partner TKNYKQTSV
Variant = V39M; value = 0.263 kcal/mol
Variant = K54F; value = 0.764 kcal/mol
Variant = R38H; value = 0.161 kcal/mol
Variant = G69A; value = 0.118 kcal/mol
Variant = P26N; value = 0.729 kcal/mol
Variant = I2W; value = 0.203 kcal/mol
Variant = D30P; value = 0.751 kcal/mol
Variant = P10G; value = -0.743 kcal/mol
Variant = R28S; value = 0.0393 kcal/mol
Variant = V36K; value = 0.819 kcal/mol
Variant = G43M; value = 0.599 kcal/mol
Variant = F27I; value = 0.754 kcal/mol
Variant = S15D; value = 0.722 kcal/mol
Variant = E83N; value = 0.24 kcal/mol
Variant = I16F; value = 0.873 kcal/mol
Variant = G19C; value = 0.966 kcal/mol
Variant = P51Q; value = 0.235 kcal/mol
Variant = V72H; value = 1.6 kcal/mol
Variant = S15A; value = 0.146 kcal/mol
Variant = L74K; value = -0.00112 kcal/mol

Study 5
Target: TAR DNA-binding protein 43, full length, His tag (TARDBP, Homo sapiens, UniProt Q13148, residues 1-414)
Technique: RNA Bind-n-Seq
Form: RNA
Sample: in vitro
Tested at: 20 nM
Setting: 6-mer, flanks averaged, single round
With: 150 mM LiCl
Relative to: input library
Direction: higher = stronger binding
Endpoint: 6-mer enrichment (R)
Sequence = GAGUCC; value = 0.897
Sequence = AAGGCG; value = 0.924
Sequence = AUAAGU; value = 0.974
Sequence = GUAUGC; value = 1.26
Sequence = UUCGCG; value = 0.938
Sequence = CGUGCA; value = 0.941
Sequence = GGACAU; value = 0.964
Sequence = UAACCA; value = 0.861
Sequence = AUUUUG; value = 1.25
Sequence = CUCUUU; value = 1.07
Sequence = UAGUCG; value = 0.946
Sequence = GCCACU; value = 0.911
Sequence = AAAAGC; value = 0.851

Study 6
Target: Fragile X messenger ribonucleoprotein 1, C-terminal low-complexity region (Fmr1, Mus musculus, UniProt P35922)
Technique: RNA Bind-n-Seq
Form: RNA
Sample: in vitro
Tested at: 200 nM
Setting: whole 134-nt RNA, ends assumed
With: 150 mM KCl
Relative to: input library
Direction: higher = stronger binding
Endpoint: log2 enrichment
Sequence = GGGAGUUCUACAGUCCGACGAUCCUGUGCUACACAUCGUAUGUACCGAAUCGGGGAAAAAAAGGGGAAAAAAAGGAAAAAAAGGGAAAGUAUUAUGUUACGCCGUUCGGAUCUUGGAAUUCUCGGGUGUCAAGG; value = -0.407
Sequence = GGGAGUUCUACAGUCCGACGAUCCAAGUCCUGUGCUACACAUCGUAUGUACCGAAUCGGAAAAAGGUGGAAAAAAAGGAAAGUAUUAUGUUACGCCGUUCGGAUCUGCACUUCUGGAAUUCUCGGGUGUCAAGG; value = -0.87
Sequence = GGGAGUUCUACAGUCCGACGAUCGUCCUGUGCUACACAUCGUAUGUACCGAAUCAAACCCCCCCAAACCCCCAAACCCAAAAAAGUAUUAUGUUACGCCGUUCGGAUCUGCACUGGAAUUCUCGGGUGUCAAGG; value = -0.0604
Sequence = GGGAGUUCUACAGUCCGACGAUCUCCUGUGCUACACAUCGUAUGUACCGAAUCAAAUUUUUAAAUUUUUAAACCCCCCCAAAAAAGUAUUAUGUUACGCCGUUCGGAUCUGCAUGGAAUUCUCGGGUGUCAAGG; value = 0.333
Sequence = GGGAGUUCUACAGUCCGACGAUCGUCCUGUGCUACACAUCGUAUGUACCGAAUCGGCCCCCGGGGCCCCCGGCCCCCGGGGAAAGUAUUAUGUUACGCCGUUCGGAUCUGCACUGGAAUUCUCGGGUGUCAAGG; value = -0.482
Sequence = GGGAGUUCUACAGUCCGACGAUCCCUCAAGUCCUGUGCUACACAUCGUAUGUACCGAAUCGGGAAGGAAGGAAGGGAAAGUAUUAUGUUACGCCGUUCGGAUCUGCACUUCCAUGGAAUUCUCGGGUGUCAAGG; value = -0.325
Sequence = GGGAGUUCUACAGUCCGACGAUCUCAAGUCCUGUGCUACACAUCGUAUGUACCGAAUCGGGAGGGAGGGUUUUUGGGAAAGUAUUAUGUUACGCCGUUCGGAUCUGCACUUCCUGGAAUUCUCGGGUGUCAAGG; value = 1.13
Sequence = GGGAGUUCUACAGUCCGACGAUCUGCCUGCUCCGGGCCCCGUGCUGGCGCCUACGCACCUGCAGACAGAGCUGGUGCUGAGGUGCCAGAAGGAGACCGACUGUGACCUCUGUCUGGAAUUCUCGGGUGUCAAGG; value = -1.27
Sequence = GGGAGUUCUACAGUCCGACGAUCGCAGGAAGUAAAAACAAAUGGAAAUGCUUCGGAUAGUGGCAGGGGUGGGGGUCGCUAAGGAAAGGGUGGGAUGGGAGUGGGUAAAGAGUUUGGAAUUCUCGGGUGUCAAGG; value = 0.11
Sequence = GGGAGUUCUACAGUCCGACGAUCAAGUCCUGUGCUACACAUCGUAUGUACCGAAUCGGGUUUUUGGGUUUGGGAAAGGGAAAGUAUUAUGUUACGCCGUUCGGAUCUGCACUUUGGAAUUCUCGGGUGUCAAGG; value = 0.455

Repeated from above (study 5):
Sequence = CUCUUU; value = 1.07
Sequence = GUAUGC; value = 1.26
Sequence = CGUGCA; value = 0.941
Sequence = AUAAGU; value = 0.974
Sequence = UAACCA; value = 0.861
Sequence = GGACAU; value = 0.964
Sequence = AAGGCG; value = 0.924
Sequence = UUCGCG; value = 0.938
Sequence = AAAAGC; value = 0.851
Sequence = UAGUCG; value = 0.946
Sequence = AUUUUG; value = 1.25
Sequence = GCCACU; value = 0.911
